Experimental data gathered from unrelated publications.
Lines come from different studies, so protocols differ. ± gives the spread as reported.

| SMILES | target or system | test | system | setting | scale | measurement | value |
| --- | --- | --- | --- | --- | --- | --- | --- |
| CC(=O)Oc1ccccc1C(=O)[O][Pt]([NH2])([NH2])([Cl])([Cl])[O]C(=O)C(Cl)Cl | LoVo oxaliplatin-resistant | cytotoxicity, MTT | – | 72 h | – | IC50 | > 3.12 µM |
| CCn1nc(Cl)c2c1-c1cnc(N)c(c1)O[C@H](C)c1cc(F)ccc1-c1nn(C)cc1C2 | Ba/F3 EML4-ALK v1, no mutation | cell viability | – | – | – | IC50 | 0.00162 µM |
| O=C(NCC1(c2nc(-c3ccccc3)cs2)CCOCC1)c1cccc(-c2noc(C(F)(F)F)n2)c1 | SU-DHL-2 | cell growth or viability, CCK-8 | – | 7 days | – | IC50 | 3.27 µM |
| Cn1ncc(-c2ccc3c(=O)[nH]nc(CN)c3c2)c1-c1c(F)c(Cl)cc(OC2CC2)c1C#N | 786-O | cell viability, inhibitor, CellTiter-Glo | – | 120 h | – | IC50 | 2.29 µM |
| CNS(=O)(=O)Nc1nccc(Cc2c(C)c3ccc(Oc4ncccc4F)cc3oc2=O)c1F | GB-1 | cell viability | – | 7 days | – | IC50 | > 1 µM |
| CC(C)c1ccc(N(C)c2ccc3c(c2)OCC[C@H]3CNc2cnccc2C(=O)O)cc1 | A204 | cell growth or viability, ATP luminescence | – | 7 days | – | IC50 | ≥ 10 µM |
| Nc1nnc(-c2ccccc2O)cc1N1CC2CCC(C1)N2c1ccnc(C#CCCN2CCCCCC2)c1 | normal prostate epithelial cells | cell viability, CellTiter-Glo | – | 168 h | – | IC50 | 0.185 µM |
| Cc1cc(NC(=O)Nc2cc(C(F)(F)F)ccc2F)ccc1C(=O)Nc1ccc2[nH]ncc2c1 | KM12-Luc (TPM3-NTRK1) | cell growth, CellTiter-Glo | – | 72 h | – | IC50 | > 50 µM |
| CCCC(CCC)C(=O)[O][Pt]([NH2])([NH2])([Cl])([Cl])[O]C(=O)C(Cl)Cl | LoVo oxaliplatin-resistant | cytotoxicity, MTT | – | 72 h | – | IC50 | 1.14 ± 0.01 µM |
| O=[P@]1(c2ccccc2)CC[C@H](O)CC1 | SW480 | cell growth or viability, MTT | – | 72 h | – | IC50 | > 100 µM |
| Cc1cc2cc(C(=O)N(Cc3ccc(C(F)(F)F)cn3)[C@H](C)c3ncccn3)ccc2nc1N | HCT-116 MTAP wild type | cell viability, CellTiter-Glo | – | 6 days | – | IC50 | 0.854 µM |
| [BH3-][P@+]1(c2ccccc2)CC[C@@H](O)CC1 | SW480 | cell growth or viability, MTT | – | 72 h | – | IC50 | > 100 µM |
| CSC(=S)N/N=C(\C)c1ccc(Nc2nnc(-c3ccc(Cl)cc3)c3ccccc23)cc1 | MCF7 | cell growth or viability, MTT | – | – | – | IC50 | 0.2 µM |
| Oc1cccc2c1[nH]c1c(C3=CC4(O)CCC=CCCCCN5CCC3C3(CC6C=CCCCCN6C43)C5)nccc12 (single isomer, unassigned; (+)) | KB | cell growth or viability, neutral red | – | 48 h | – | IC50 | 0.78 µg/mL |
| CCNC(=S)NN=Cc1c2ccccc2cc2ccccc12.Cc1ccc(C(C)C)cc1.[Cl-].[Cl-].[Ru+2] | CCD-18Co | cytotoxicity, MTS | – | 72 h | – | IC50 | 253 ± 6 µM |
| O=C1C2=Nc3ccccc3CN2C(=S)N1c1ccccc1 | CEM/ADR5000 (P-gp overexpressing, multidrug-resistant) | cell viability, resazurin | – | 72 h | – | IC50 | inactive |
| CCCCCCCCCCCC(=O)Oc1c(C)c(OC)c2c(c1C)OC(=O)[C@@H](CCCCCCCCCC)[C@]2(O)/C=C/c1ccccc1 (relative stereo) | SH-SY5Y | cell growth or viability, SRB | – | 72 h | – | IC50 | > 50 µM |
| C=CC(=O)N1CCCC(n2c(=O)c3ncccc3n(Cc3ccc(Oc4ccccc4)cc3)c2=O)C1 (stereo not drawn) | SU-DHL10 | cell growth or viability, MTT | – | 72 h | – | IC50 | 0.3 µM |
| C1=[N+]2CCCC[N+]3=Cc4ccc5[n]4[Au-]23[n]2c1ccc2-c1nc2ccccc2nc1-5.F[P-](F)(F)(F)(F)F | HOP-62 lung cancer | cell growth | – | – | – | IC50 | 4 µM |
| CCOc1cncc(-c2ccc(NC(=O)C3(c4ccnc(NS(=O)(=O)C5CC5)n4)CCOCC3)nc2)n1 | OCI-Ly7 | cell growth or viability, ATP luminescence | – | 72 h | – | IC50 | 0.004 µM |
| CCCCn1cnc2ccc(-c3ccc(NC(=O)CC)nc3)cc2c1=O | NSCLC cells | cell growth | – | – | – | IC50 | > 1 µM |
| COc1c(C)c(OC(=O)c2ccc3ccccc3c2)c(C)c(O)c1C(=O)/C=C/c1ccccc1 | KKU-M213 | cell growth or viability, SRB | – | 72 h | – | IC50 | > 50 µM |
| O=C(Nc1ccc(F)c(C(=O)Nc2ccc3[nH]ncc3c2)c1)Nc1cc(C(F)(F)F)ccc1F | KM12-Luc (TPM3-NTRK1) | cell growth, CellTiter-Glo | – | 72 h | – | IC50 | 19.2 ± 2.66 µM |
| Cc1c(COc2cc(OCc3cccc(C#N)c3)c(CNC(CO)(CO)CO)cc2Cl)cccc1-c1cccc(OCCCCCCC(=O)NO)c1 | SH-SY5Y | cell growth or viability, CCK-8 | – | 48 h | – | IC50 | > 20 µM |
| CCCCCCCC(=O)Oc1c(C)c(OC)c2c(/C=C/c3ccccc3)c(CCCCCC)c(=O)oc2c1C | KKU-M213 | cell growth or viability, SRB | – | 72 h | – | IC50 | > 50 µM |
| O=C(Nc1ccc(C(=O)Nc2ccc3[nH]nc(-c4ccncc4)c3c2)c(C(F)(F)F)c1)Nc1cc(C(F)(F)F)ccc1F | KM12-Luc (TPM3-NTRK1) | cell growth, CellTiter-Glo | – | 72 h | – | IC50 | > 50 µM |
| COC1CN([C@H]2CC[C@H]([C@@]3(C)Oc4c(Cl)cc(C(=O)NCc5c(SC)cc(C)[nH]c5=O)c(C)c4O3)CC2)C1 | – | RNA-seq, measured: SGIP1 | human, whole blood | dose not given, 24 h | relative to: pretreatment baseline | log2 fold change | 6.5 |

Excerpt of the above:
| SMILES | target or system | test | system | setting | scale | measurement | value |
| --- | --- | --- | --- | --- | --- | --- | --- |
| Cc1cc(NC(=O)Nc2cc(C(F)(F)F)ccc2F)ccc1C(=O)Nc1ccc2[nH]ncc2c1 | KM12-Luc (TPM3-NTRK1) | cell growth, CellTiter-Glo | – | 72 h | – | IC50 | > 50 µM |
| CCCC(CCC)C(=O)[O][Pt]([NH2])([NH2])([Cl])([Cl])[O]C(=O)C(Cl)Cl | LoVo oxaliplatin-resistant | cytotoxicity, MTT | – | 72 h | – | IC50 | 1.14 ± 0.01 µM |
| O=[P@]1(c2ccccc2)CC[C@H](O)CC1 | SW480 | cell growth or viability, MTT | – | 72 h | – | IC50 | > 100 µM |
| Cc1cc2cc(C(=O)N(Cc3ccc(C(F)(F)F)cn3)[C@H](C)c3ncccn3)ccc2nc1N | HCT-116 MTAP wild type | cell viability, CellTiter-Glo | – | 6 days | – | IC50 | 0.854 µM |
